Experimental data of several laboratories.
Numbered parts are unrelated; each lists some results of a single study. Substitutions count along the parent as printed.

Block 1
Target: Prothrombin, mature alpha-thrombin (F2, Homo sapiens, UniProt P00734)
Technique: aptamer microarray, sandwich
Molecule type: DNA with 2'F-ANA
Sample: in vitro
Concentration: 200 nM
Notes: whole 15-mer aptamer, many near background
With: Cy3 exosite-II aptamer, 400 nM
Direction: higher = stronger binding
Oligonucleotide: GGTTGGTGTGGTTGG
Modification	mean fluorescence intensity
2'F-ANA at 1 3 4 5 6 7 9 13	58.8 a.u.
2'F-ANA at 2 4 5 7 10 11 12 14	44.8 a.u.
2'F-ANA at 5 9 13	57 a.u.
2'F-ANA at 1 2 4 5 6 7 8 9 10 12 13 15	49.1 a.u.
2'F-ANA at 1 2 5 9 12 13 15	76.8 a.u.
2'F-ANA at 1 5 6 9 10 12 14 15	44.6 a.u.
2'F-ANA at 1 3 4 7 9 11 12 13 15	195 a.u.
2'F-ANA at 1 2 3 6 7 8 10 12 13 15	99 a.u.
2'F-ANA at 2 3 7 8 10 12 14 15	339 a.u.
2'F-ANA at 1 3 5 6 8 10 12 13 14	47.3 a.u.
2'F-ANA at 3 7 9 11 12 13 14 15	614 a.u.
2'F-ANA at 3 6 7 9 10 11 15	396 a.u.
2'F-ANA at 5 6 12 13 14	112 a.u.
2'F-ANA at 3 4 6 9 10 11 12 13 14 15	167 a.u.
2'F-ANA at 1 2 4 5 13 14	68.5 a.u.
2'F-ANA at 2 3 5 8 10 11 12 13 15	57.1 a.u.
2'F-ANA at 1 2 3 5 6 7 8 9 11 13 14 15	49.8 a.u.
2'F-ANA at 1 2 3 4 6 7 8	198 a.u.

Block 2
Target: CCNF, cyclin fold, Cln2 fusion (human)
Technique: yeast growth competition, sequencing
Sample: yeast
Notes: strong parent motif
Baseline: not given
Direction: higher = stronger binding
Parent: PKN2 docking peptide (human); VSAVRKLDFSDTM
Change	normalised enrichment score
VSAMRKLDFSDTM [V4M]	6.97
VSAVRKHDFSDTM [L7H]	-0.0298
VNAVRKLDFSDTM [S2N]	7.16
VSAVRKLDFSDKM [T12K]	7.45
VSAVRKLDFSVTM [D11V]	7.48
VSAVEKLDFSDTM [R5E]	-0.381
VSAWRKLDFSDTM [V4W]	5.78
VSAVRALDFSDTM [K6A]	6.66
VSAVRKLDFSGTM [D11G]	7.29
VSAVRKLDFEDTM [S10E]	7.05
VKAVRKLDFSDTM [S2K]	7.54
VVAVRKLDFSDTM [S2V]	6.95
VSAVRKLRFSDTM [D8R]	8.28
VSAVRKLDFSDQM [T12Q]	7.08
VSAVRKLWFSDTM [D8W]	8.74
VWAVRKLDFSDTM [S2W]	7.1
VSAVRKSDFSDTM [L7S]	-0.12
VSAVKKLDFSDTM [R5K]	5.11
VLAVRKLDFSDTM [S2L]	7.3
VSDVRKLDFSDTM [A3D]	0.252
VSAVRKLSFSDTM [D8S]	6.62
VSAVDKLDFSDTM [R5D]	-0.338
VSAVWKLDFSDTM [R5W]	0.217
VSAVRVLDFSDTM [K6V]	6.49
VSKVRKLDFSDTM [A3K]	3.03

Block 3
Target: Interferon regulatory factor 7, full length, phosphomimetic (IRF7, Homo sapiens, UniProt Q92985, residues 1-503, S471D/S472D/S475D/S476D/S477D/S483D/S484D/S487D)
Chain of UniProt Q92985 (whole entry, unmodified, looked up): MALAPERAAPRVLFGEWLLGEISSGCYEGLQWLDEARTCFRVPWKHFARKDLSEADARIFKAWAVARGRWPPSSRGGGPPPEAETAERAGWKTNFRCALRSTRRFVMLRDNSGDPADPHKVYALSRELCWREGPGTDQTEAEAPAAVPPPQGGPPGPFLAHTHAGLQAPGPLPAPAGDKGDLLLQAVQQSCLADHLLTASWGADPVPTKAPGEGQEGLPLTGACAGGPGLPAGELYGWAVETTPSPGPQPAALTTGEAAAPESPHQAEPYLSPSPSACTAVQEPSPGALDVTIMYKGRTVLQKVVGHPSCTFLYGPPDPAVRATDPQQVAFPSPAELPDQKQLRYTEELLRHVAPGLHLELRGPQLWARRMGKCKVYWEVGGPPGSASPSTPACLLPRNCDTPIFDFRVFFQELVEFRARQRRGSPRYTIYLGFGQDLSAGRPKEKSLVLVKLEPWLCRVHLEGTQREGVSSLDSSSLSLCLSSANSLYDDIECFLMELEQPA
Technique: protein-binding microarray
Molecule type: double-stranded DNA, one strand shown
Sample: in vitro
Concentration: 2200 nM top
Notes: 60-bp whole probe
With: salmon DNA 0.4 mg/ml
Baseline: random background probes
Direction: higher = stronger binding
Shared flanks, not repeated: GCCTAGCAC … GTCTTGATTCGCTTGACGCTGCTG
Oligonucleotide	fitted relative affinity [z-score]
GACGGTTTCCTTATCCCGACGTGCTAG	3.13
TTAGGTCTCGGTTTCGGTTTGTGCTAG	12.5
TCAGGTCTTCACTTGGCACTGTGCTAG	0.514
GACGGTTCCGTTTTCGGGACGTGCTAG	5.01
CACTCTGTCCCTCTGTGACAGTGCTAG	1.43
GACGGACTGGACTTTAGGGACGTGCTA	-0.954
TTCTTACTTTGGGATTCTGAGTGCTAG	1.14
GGTGCTGTTTACATAGTTCTGTGCTAG	0.786
GACGGTCTCCTTTGCCTGACGTGCTAG	0.857
GACGATTTCGGGTATCGAAACGTGCTA	2.52
TCAATTTTCATTATTGCACTGTGCTAG	2.51
TCAGTTTTCCTTATTGCACTGTGCTAG	3.01
TTAGGTTTCCTACCGCTTTAGTGCTAG	0.999
TTAGGACTGCTTCTCCTTTGGTGCTAG	0.657
GACGGACTGGACTATCGGTACGTGCTA	-0.11
TCATATTTGCAACATCCCACTGTGCTA	1.58
TCAGATTTTTAGTTAGAACTGTGCTAG	-0.104
GACGATCTCATACTGGAGACGTGCTAG	0.264

Block 4
Target: RNA binding protein fox-1 homolog 2, RRM domain, GST-SBP tag (RBFOX2, Homo sapiens, UniProt O43251-10, residues 100-194)
Technique: RNA Bind-n-Seq
Molecule type: RNA
Sample: in vitro
Concentration: 365 nM
Notes: natural RNA segment, single round, ends assumed
Baseline: no-protein control
Direction: higher = stronger binding
Shared flanks, not repeated: GGGAGUUCUACAGUCCGACGAUC … UGGAAUUCUCGGGUGCCAA
Target sequence (chain): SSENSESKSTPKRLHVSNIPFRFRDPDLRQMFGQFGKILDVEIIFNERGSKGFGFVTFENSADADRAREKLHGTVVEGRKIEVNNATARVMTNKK
Oligonucleotide	RBNS enrichment (R)
AUUCUGCCUCAAUCUUUUGCAAGCCCACCUGCCUCUCUCCUGCUGCUCCUCCAGCUGUAUCUGCACCUGCCUCUCUGUCCUGGCCAGGGGUGGACAACUGGGGUCCCCCA	1.19
UCCACCCCUUGUCUUUGUGUGUCAGGUGAUCAUUGAAAUCGUAUCUUGAGCUUGAAUUCACUUCUCUGUCUGUUUCCGGAGCUGGUGAAAUAAAUGUGAUUUUUGUCCGA	9.14
UUUUUUACAGUGACAACAGACAGUCCCUCGGUUUCAUGUCUUUUCGUAACCCUUUCAAUUGAACUGCCUGGAUUUUAUAUAAAGUUACUAAACGAUACCUUGUUCUUGGA	0.536
CCCUGGGCCCGGGUUGCUAAGCAUUAAAAGCUUGCCUUUCUCCCUGCCCUUGCUCUGUUUCUGCUCCUCACCGGCUGUCAUUACAUGCUACACUGAGGCUUUAAAAACAC	0.227
AAAGGAAAGAAAAGGAAUUGGUGUGAAGAGAGAAGUUAGAGAAGGGAAAUGCAGUGAAUUACUAUCUGUGUCCAUCAGGAAGUUUGUCCUGUUAACCAAAUGGUUACUGC	1.61
UGCUGUGAGUUGUUCCAGACCUUUCUGUGGCUUUUUGGUAAGGCUGCUUAGAAGCAUGAGAAGCAUGAGAAUGGUAAUGUGUGCUAAACCUAUGUUUAACCAAUCUUUGC	4.73
CCGUGUCUACACGAAGCACCCAGUUGACAUCCGACUUGUUUUUGAGACGGGGGUCUCACUUAGCUGUGAGUGGCCUUGAACUGACCCUUCCACCUUCAUUUCCCAAGUGC	0.38
ACAUUGUGGUCUGAAGCUCAGGCCACAGUGCCUGCCUCGUUCCCUCAGCCUCCCUCCCAGGGCUCCAGAGCUCAGCUCUUCCUUUUCUAGAAGCAUGUGAAGAUGCCCAA	0.579
AUCAAACGGAAGACGGCAGGCCCUGUCCUUCCACUCAGGUGCUGCUUGCAGUGCUCCUCAACAGAGGGAGAGUCUCCCUAAGAUUUCCAUGUUCCUAGACAAAGUCCUAA	0.242
UUAACAGACUUGCUGUGUAGCAGUUUUUUUCUGGUGGAGUUGCUGUAAGUCUUGUAAGUCUAAUGUGGCUAUCCUACUCUUUUGGGCAAUGCAUGUAUUAUGCAUUGGAA	0.499
UCCAGUAAUGAAAGCAGCACCAUAUCCUAAUCUAAUGUCAGCUUCGAGAAUGAAGACUGCAGUCAGGAUCAAAUCAAGUCACAGAAGCCAUAUUCAUGCAGGUGCUAACC	0.897
CUUUGACAUCACAGGUCCCUUCCAGGGGUACCACUGGGUAGCUGCAGUGUGCACCGGUCACUACAUUCAGGCUAUUUGAGGUUUUCAUAUGCUGCAUUUCUUUGUUUUUA	0.418

Repeated from above (block 1):
Modification	mean fluorescence intensity
2'F-ANA at 1 5 6 9 10 12 14 15	44.6 a.u.
2'F-ANA at 2 3 5 8 10 11 12 13 15	57.1 a.u.
2'F-ANA at 1 2 3 6 7 8 10 12 13 15	99 a.u.
2'F-ANA at 1 3 4 7 9 11 12 13 15	195 a.u.
2'F-ANA at 1 2 5 9 12 13 15	76.8 a.u.
2'F-ANA at 2 3 7 8 10 12 14 15	339 a.u.
2'F-ANA at 3 6 7 9 10 11 15	396 a.u.
2'F-ANA at 1 3 5 6 8 10 12 13 14	47.3 a.u.
2'F-ANA at 1 2 3 4 6 7 8	198 a.u.
2'F-ANA at 1 2 4 5 13 14	68.5 a.u.
2'F-ANA at 3 4 6 9 10 11 12 13 14 15	167 a.u.
